Measured values pooled from the literature.
Compare with care: the assays were run in different laboratories. Several values in a cell are separate wells, animals, samples, runs or records. ± gives the spread as reported.
UniProt P12830, sequence (whole entry, looked up): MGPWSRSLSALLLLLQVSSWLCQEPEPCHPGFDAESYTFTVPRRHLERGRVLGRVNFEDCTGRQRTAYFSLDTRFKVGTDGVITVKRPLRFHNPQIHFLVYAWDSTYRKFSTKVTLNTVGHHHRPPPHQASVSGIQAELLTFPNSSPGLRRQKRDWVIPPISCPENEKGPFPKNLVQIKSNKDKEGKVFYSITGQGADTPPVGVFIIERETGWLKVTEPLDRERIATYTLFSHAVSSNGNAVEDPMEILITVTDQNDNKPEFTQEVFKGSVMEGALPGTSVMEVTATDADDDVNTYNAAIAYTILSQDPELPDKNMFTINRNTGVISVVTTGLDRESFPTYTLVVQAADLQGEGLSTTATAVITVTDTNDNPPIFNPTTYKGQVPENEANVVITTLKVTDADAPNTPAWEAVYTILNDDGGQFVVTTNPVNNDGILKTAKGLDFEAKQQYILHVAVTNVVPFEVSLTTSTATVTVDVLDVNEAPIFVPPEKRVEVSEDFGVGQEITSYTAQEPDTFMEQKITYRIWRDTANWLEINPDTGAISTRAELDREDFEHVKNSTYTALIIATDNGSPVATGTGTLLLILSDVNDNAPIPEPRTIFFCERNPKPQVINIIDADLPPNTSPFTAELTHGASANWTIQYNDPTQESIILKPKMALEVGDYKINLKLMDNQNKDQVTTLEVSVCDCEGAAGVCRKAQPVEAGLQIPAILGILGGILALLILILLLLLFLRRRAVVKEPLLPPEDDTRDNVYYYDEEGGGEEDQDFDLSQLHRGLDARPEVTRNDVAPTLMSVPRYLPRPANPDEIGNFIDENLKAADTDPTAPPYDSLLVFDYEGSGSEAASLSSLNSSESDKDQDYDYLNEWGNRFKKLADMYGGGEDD
UniProt O14965, sequence (whole entry, looked up): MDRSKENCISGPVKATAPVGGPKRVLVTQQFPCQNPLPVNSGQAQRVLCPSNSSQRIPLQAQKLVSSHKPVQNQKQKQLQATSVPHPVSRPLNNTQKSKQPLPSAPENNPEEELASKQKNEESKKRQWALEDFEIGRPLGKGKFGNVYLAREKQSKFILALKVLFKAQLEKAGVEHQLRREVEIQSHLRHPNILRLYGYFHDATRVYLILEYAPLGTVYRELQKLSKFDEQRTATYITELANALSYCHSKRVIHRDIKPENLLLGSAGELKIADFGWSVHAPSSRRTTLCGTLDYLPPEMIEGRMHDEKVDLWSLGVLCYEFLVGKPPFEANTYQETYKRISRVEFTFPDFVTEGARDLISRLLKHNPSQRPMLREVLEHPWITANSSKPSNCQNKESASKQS
UniProt P08172, sequence (whole entry, looked up): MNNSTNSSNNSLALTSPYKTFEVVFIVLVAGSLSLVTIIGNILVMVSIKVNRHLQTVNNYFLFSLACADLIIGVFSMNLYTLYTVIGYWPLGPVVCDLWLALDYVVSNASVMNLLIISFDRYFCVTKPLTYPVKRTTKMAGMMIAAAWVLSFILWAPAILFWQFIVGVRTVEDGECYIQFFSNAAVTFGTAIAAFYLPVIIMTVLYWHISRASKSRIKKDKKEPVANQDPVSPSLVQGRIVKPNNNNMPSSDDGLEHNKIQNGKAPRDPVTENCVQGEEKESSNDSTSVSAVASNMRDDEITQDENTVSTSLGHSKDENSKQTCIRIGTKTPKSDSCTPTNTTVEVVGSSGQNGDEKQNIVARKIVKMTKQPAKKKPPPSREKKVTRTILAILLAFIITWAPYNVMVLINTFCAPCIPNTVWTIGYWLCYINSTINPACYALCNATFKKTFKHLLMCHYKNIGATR
UniProt A2RI47, sequence (whole entry, looked up): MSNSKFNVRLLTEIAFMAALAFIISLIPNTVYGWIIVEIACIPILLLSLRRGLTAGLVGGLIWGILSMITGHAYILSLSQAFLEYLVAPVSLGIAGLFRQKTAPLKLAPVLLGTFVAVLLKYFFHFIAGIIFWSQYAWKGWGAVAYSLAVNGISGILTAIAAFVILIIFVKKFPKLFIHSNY
UniProt P48061, sequence (whole entry, looked up): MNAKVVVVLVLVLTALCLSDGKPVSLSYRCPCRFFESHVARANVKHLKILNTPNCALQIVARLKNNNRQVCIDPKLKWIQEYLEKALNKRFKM
UniProt Q9HC29, sequence (whole entry, looked up): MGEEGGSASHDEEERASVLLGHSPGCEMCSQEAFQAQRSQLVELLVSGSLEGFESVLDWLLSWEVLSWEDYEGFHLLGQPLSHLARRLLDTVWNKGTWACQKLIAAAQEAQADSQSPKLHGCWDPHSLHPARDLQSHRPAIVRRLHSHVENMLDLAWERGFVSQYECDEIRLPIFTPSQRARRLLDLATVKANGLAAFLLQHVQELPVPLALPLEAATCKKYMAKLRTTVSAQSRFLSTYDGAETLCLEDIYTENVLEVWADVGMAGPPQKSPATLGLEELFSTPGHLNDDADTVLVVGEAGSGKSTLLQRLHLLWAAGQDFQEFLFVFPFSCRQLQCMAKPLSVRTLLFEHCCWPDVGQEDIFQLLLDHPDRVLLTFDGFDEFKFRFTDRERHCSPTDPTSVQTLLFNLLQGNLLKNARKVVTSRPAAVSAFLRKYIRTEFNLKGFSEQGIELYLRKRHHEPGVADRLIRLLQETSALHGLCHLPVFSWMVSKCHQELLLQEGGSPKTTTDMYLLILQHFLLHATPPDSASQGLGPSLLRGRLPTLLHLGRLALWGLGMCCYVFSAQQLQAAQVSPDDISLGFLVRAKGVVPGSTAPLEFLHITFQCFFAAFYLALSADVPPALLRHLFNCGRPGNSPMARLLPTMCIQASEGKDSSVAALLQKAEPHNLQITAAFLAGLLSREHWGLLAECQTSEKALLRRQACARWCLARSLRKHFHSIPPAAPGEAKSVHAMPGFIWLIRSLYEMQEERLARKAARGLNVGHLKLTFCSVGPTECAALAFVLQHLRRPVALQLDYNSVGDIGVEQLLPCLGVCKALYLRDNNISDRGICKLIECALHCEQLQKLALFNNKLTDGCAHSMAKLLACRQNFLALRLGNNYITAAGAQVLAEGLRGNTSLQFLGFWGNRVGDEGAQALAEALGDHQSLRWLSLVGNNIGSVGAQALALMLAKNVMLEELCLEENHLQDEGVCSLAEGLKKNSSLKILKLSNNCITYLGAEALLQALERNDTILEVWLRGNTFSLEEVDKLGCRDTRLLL

Compound | target | assay | system | setting | Kd
Cc1ncc(Cc2csc(C=NNC(=O)Cc3ccccc3)c2C)c(N)n1 (mixture of isomers) | Thiamine transporter ThiT (Lactococcus lactis subsp. cremoris, UniProt A2RI47) | binding, ITC | – | – | 20.9 µM
CN(C)CCNC(=O)c1cccc2c(NCCCCc3c(N)nc(N)nc3N)c3ccccc3nc12 | RNA with G–G mismatch | binding, ITC | – | 25 °C, 1 | 103 µM and > 100 µM
COc1ccccc1CNC(=O)CCn1c(=O)[nH]c2ccsc2c1=O | Heat shock protein 90, N-terminal domain (Plasmodium falciparum, UniProt Q8IC05) | binding, SPR | – | – | 13.5 µM and > 10 µM
[3H]CC([3H])C(=O)NC1CN(CCCCC2CCN(CC(=O)N3c4ccccc4NC(=O)c4ccccc43)CC2)CCN(CCCOc2nsnc2C2=CCCN(C)C2)C1 (stereo not drawn) | CHRM2 (Homo sapiens, UniProt P08172) | binding, radioligand | – | – | 0.001 µM
CC(=O)N[C@H]1CSSC[C@@H](C(N)=O)NC(=O)[C@H](C(C)C)NC(=O)[C@H](C)NC(=O)[C@H](Cc2c[nH]cn2)NC(=O)[C@H](CO)NC1=O | CDH1, EC1 domain (Homo sapiens, UniProt P12830) | binding, HSQC NMR titration | EC1 domain | – | 5 to 10 µM
CC(=O)N[C@@H]1[C@@H](O[C@@H]2O[C@H](C(=O)O)[C@@H](O[C@@H]3O[C@H](COS(=O)(=O)O)[C@@H](OS(=O)(=O)O)[C@H](O[C@@H]4O[C@H](C(=O)O)[C@@H](OS(=O)(=O)O)[C@H](OS(=O)(=O)O)[C@H]4OS(=O)(=O)O)[C@H]3NC(C)=O)[C@H](OS(=O)(=O)O)[C@H]2OS(=O)(=O)O)[C@H](OS(=O)(=O)O)[C@@H](COS(=O)(=O)O)O[C@H]1N=[N+]=[N-] | CXCL12 (Homo sapiens, UniProt P48061) | ligand displacement, FP | – | – | 3.4 µM
C[n+]1ccc(/C=N/NC(=O)c2cccc(C(=O)N/N=C/c3cc[n+](C)c4ccccc34)n2)c2ccccc21 | MYC promoter G4 DNA | binding, native ESI-MS | 100 mM trimethylammonium acetate | 1 mM KCl | 0.053 µM
O=C1c2ccccc2C(=O)c2c1c(O)c1nc(Cc3ccccc3)[nH]c1c2O | Aurora kinase A (AURKA, Homo sapiens, UniProt O14965) | binding, tryptophan fluorescence quenching | – | pH 7.5, 25 °C, AurA 3.0 µM | 23.3 ± 3 µM
N=C(N)NCCC[C@H](NC(=O)[C@H](CS)NC(=O)[C@H](Cc1ccc(O)cc1)NC(=O)[C@H](Cc1c[nH]c2ccccc12)NC(=O)[C@H](CCCNC(=N)N)NC(=O)[C@H](Cc1c[nH]c2ccccc12)NC(=O)[C@H](Cc1c[nH]cn1)NC(=O)CNC(=O)CN)C(=O)NCC(=O)NCC(=O)N[C@@H](CCCCN)C(N)=O | supercoiled pUC19 plasmid DNA | tryptophan fluorescence | – | per base pair, 1 mM TCEP | 2.5 ± 0.8 µM
CCCCCCCCCc1nc2cc(Cl)ccc2c(=O)n1CCN | Staphylococcus aureus membranes | membrane binding | – | – | 22 ± 1.7 µM
C[C@H](N)C(=O)N[C@H](CCC(=O)O)C(N)=O | NOD2 (Homo sapiens, UniProt Q9HC29) | binding, SPR | – | pH 6.5 | 0.012 to 0.024 µM
Cc1cc(C)c(S(=O)(=O)N(CC(=O)O)c2ccc(Nc3ccnc(N4CCCC4)n3)cc2)c(C)c1 | HSP90AA1 (Homo sapiens, UniProt P07900, R46A) | binding, biolayer interferometry | – | mutant R46A | 6.53 µM

For quick reference, copied from above:
Compound | target | assay | system | setting | Kd
[3H]CC([3H])C(=O)NC1CN(CCCCC2CCN(CC(=O)N3c4ccccc4NC(=O)c4ccccc43)CC2)CCN(CCCOc2nsnc2C2=CCCN(C)C2)C1 (stereo not drawn) | CHRM2 (Homo sapiens, UniProt P08172) | binding, radioligand | – | – | 0.001 µM
